{"data": "Results from different studies"}
{"Substance": "deucravacitinib", "system": "human", "setting": "6 mg twice daily, day 12, steady state, multiple dose", "measurement": "Cavg", "result": "36 ng/mL"}
{"Substance": "semaglutide", "test": "item: recovered or resolved", "system": "human, safety analysis set", "setting": "concentration not given, 32 weeks, run-in", "measurement": "participants with adverse events", "result": "75%"}
{"Substance": "chicoric acid", "tested on": "IPEC-J2 monolayer", "setting": "with: chloroquine 30 µM", "scale": "relative to: without inhibitor", "measurement": "Papp apical to basolateral", "result": "decreased"}
{"Substance": "maraviroc", "system": "black CYP3A5 extensive metabolizers, plasma", "setting": "300 mg twice daily", "measurement": "Tmax", "result": "2 h"}
{"note": "Excerpt of the above:"}
{"Substance": "semaglutide", "test": "item: recovered or resolved", "system": "human, safety analysis set", "setting": "concentration not given, 32 weeks, run-in", "measurement": "participants with adverse events", "result": "75%"}
